Measured values of several laboratories.
Numbered parts are unrelated; each lists some results of a single study. Positions count from the first letter of the parent shown.

Set 1
Target: Sal-like protein 4, full length isoform B (SALL4, Homo sapiens, UniProt Q9UJQ4-2, residues 1-616)
Method: universal PBM
Form: double-stranded DNA, one strand shown
Matrix: in vitro
Tested at: not given
Notes: 8-mer, flanks averaged, mean of replicates
Direction: higher = stronger binding
Measurement: E-score
AAAAGCTC: -0.0636
CCACGCCA: -0.105
CGTAGTGA: -0.116
TGGAGACA: 0.0103
AACTCGAA: -0.109
CAGAAGAG: -0.0729
ATGGCTGC: -0.068
CAGATCTC: -0.213
CCAGACAG: -0.199
CAGAGTGG: -0.186
AAGGACTT: -0.131
GAAGTCTA: 0.0552
ATTGGCAG: -0.122

Set 2
Target: Centromere-binding protein 1, full length, His-tagged (CBF1, Saccharomyces cerevisiae, UniProt P17106, residues 1-351)
Chain of UniProt P17106 (whole entry, looked up): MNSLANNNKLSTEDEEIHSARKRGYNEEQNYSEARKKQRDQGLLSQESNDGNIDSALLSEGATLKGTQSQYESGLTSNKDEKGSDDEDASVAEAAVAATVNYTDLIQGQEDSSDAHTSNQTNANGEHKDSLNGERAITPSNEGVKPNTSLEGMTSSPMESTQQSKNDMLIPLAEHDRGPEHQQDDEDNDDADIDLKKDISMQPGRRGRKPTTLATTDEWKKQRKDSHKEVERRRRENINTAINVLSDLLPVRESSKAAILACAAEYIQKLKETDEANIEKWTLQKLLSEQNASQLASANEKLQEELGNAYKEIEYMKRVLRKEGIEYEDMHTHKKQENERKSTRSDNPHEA
Method: competition protein-binding microarray
Form: double-stranded DNA, one strand shown
Matrix: in vitro
Tested at: 2 µM
Notes: whole 60-bp probe, lowest competitor level
Added: Pho4 competitor, 0.05 µM
Direction: higher = stronger binding
Measurement: fluorescence intensity
CGGATCAGTTTACATCATGTGTGCCCCCACCATGATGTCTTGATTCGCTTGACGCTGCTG: 219 a.u.
GTAATAGGAATAGACCGTGTGATGGTTGCCGTCAGCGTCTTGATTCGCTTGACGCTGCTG: 68.4 a.u.
CATTGGGTATACCATCACGTGTACTATCAAATAAAGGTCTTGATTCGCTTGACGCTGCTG: 4500 a.u.
CTTCTGTAAATTTGCTCGGTGGGTGGACGCGCCCCGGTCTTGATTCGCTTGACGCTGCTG: 91.8 a.u.
CCGGACTTCCATCGGCACGTGGACCTAAAATTCTTTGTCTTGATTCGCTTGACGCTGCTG: 1940 a.u.
AAAAGGTTGACTGGGCTCGTGAAGATTTCGAAAAGAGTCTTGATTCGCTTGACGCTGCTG: 82.6 a.u.
CTTCTGTAAATTTGCCAAGTGGGTGGACGCGCCCCGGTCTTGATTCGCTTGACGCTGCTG: 73.9 a.u.
CGGGGTTAAGTTTGTCACCCCACTTGCTTGCAGCAGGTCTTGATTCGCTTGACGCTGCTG: 68.2 a.u.
AAAGCGGTAATTTGGATGGTGGGTGCAGATATCTATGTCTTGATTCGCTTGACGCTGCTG: 72.8 a.u.
TTAAGTCTATACCTTCACGTGACTCGCTAGTACCCGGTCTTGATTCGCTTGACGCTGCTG: 6680 a.u.
CTTGCAAACCCTTCACACGTGGACCATGACGAATTTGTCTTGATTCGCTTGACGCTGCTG: 714 a.u.
CTTTCCCGATCTTGCTAGGTGGGTGTAGCACATTTGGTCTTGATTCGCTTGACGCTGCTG: 68.6 a.u.
TGCGCAACAACTTGCAATGTGGGTGTATGTCTAGAAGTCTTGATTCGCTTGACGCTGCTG: 69.3 a.u.

Set 3
Target: Histone acetyltransferase KAT6A, winged helix 2, GST fusion (KAT6A, Homo sapiens, UniProt Q92794, residues 85-181)
Method: protein binding microarray
Form: double-stranded DNA, one strand shown
Matrix: in vitro
Tested at: not given
Notes: 8-mer, flanks averaged, mean of 2 arrays, mostly near background
Relative to: not given
Direction: higher = stronger binding
Measurement: E-score
Construct (chain): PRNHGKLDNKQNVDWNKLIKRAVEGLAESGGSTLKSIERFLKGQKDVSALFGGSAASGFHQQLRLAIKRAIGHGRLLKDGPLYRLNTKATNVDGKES
CGTTAGAA: 0.0744
AAAGGATC: -0.127
ATAGATCC: -0.103
CAATGTGA: -0.0428
GAAAAACA: -0.118
ATTTCCCC: -0.148
AGAGCAAC: 0.19
GTACGAAA: 0.0646
CTGACTTA: 0.0956
GCCAGTAC: 0.00219
AAGTTAAA: -0.0249
ACGTAGCA: -0.1
CTGTTGTA: -0.0501

Set 4
Target: Ras GTPase-activating protein-binding protein 1, RRM domain (G3BP1, Homo sapiens, UniProt Q13283)
Chain of UniProt Q13283 (whole entry, looked up): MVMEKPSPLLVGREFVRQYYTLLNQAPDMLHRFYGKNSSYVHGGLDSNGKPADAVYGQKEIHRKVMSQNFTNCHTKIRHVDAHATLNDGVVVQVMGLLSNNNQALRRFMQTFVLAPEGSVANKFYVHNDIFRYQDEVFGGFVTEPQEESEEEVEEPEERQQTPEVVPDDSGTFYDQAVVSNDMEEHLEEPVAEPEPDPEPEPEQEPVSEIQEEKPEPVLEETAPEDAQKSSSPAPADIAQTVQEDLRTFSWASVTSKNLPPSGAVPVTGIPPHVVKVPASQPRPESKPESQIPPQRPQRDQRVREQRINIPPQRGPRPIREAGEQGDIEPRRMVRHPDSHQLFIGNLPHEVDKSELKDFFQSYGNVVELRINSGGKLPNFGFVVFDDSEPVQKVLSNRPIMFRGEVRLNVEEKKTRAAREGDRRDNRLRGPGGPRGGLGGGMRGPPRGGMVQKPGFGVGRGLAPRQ
Method: RNA Bind-n-Seq
Form: RNA
Matrix: in vitro
Tested at: 1 µM
Notes: whole 134-nt RNA, ends assumed
Added: 150 mM KCl
Relative to: input library
Direction: higher = stronger binding
Measurement: log2 enrichment
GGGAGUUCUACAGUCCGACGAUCUCCUGUGCUACACAUCGUAUGUACCGAAUCGGGGUUUUUUGGUUUUUUGGGUUUUUUGGGAAAGUAUUAUGUUACGCCGUUCGGAUCUGCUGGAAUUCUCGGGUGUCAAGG: -0.168
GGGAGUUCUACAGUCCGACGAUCCUCAAGUCCUGUGCUACACAUCGUAUGUACCGAAUCGGUUUUUGGUUUGGUGGAAAGUAUUAUGUUACGCCGUUCGGAUCUGCACUUCCAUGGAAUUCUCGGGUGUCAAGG: -0.326
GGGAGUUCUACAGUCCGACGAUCCCUGUGCUACACAUCGUAUGUACCGAAUCGGGGAAAGGGGUUUUUUUGGGGAAAAAGGGGAAAGUAUUAUGUUACGCCGUUCGGAUCUGCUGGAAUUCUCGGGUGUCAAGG: 0.522
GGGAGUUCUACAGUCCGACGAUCAGUCCUGUGCUACACAUCGUAUGUACCGAAUCGGGGUUUUGGGUUUUGGGGUUUUGGGAAAGUAUUAUGUUACGCCGUUCGGAUCUGCACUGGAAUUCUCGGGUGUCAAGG: 0.144
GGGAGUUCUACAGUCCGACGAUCAGUCCUGUGCUACACAUCGUAUGUACCGAAUCGGAAAAAAAGGUUUUUGGAAAAAGGAAAGUAUUAUGUUACGCCGUUCGGAUCUGCACUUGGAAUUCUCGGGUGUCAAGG: -0.211
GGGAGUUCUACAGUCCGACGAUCUGGCCCUGGUGGCAUGCGGGGAGGAAGAGGUGGCCUCAUGGAUCGAGGUGGUCCCGGUGGAAUGUUCAGAGGUGGCCGUGGUGGAGACAGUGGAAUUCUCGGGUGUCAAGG: 1.19
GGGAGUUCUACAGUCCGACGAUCUCCUCAAGUCCUGUGCUACACAUCGUAUGUACCGAAUCGGGAGGAGGAGGGGAAAGUAUUAUGUUACGCCGUUCGGAUCUGCACUUCCAGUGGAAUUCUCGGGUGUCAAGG: -0.285
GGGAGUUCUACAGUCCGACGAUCUCAAGUCCUGUGCUACACAUCGUAUGUACCGAAUCGGAAAGGGGAAAGGAAAGGAAAGUAUUAUGUUACGCCGUUCGGAUCUGCACUUCCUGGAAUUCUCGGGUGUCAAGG: -0.257

Set 5
Target: Interferon regulatory factor 5, full length, phosphomimetic (IRF5, Homo sapiens, UniProt Q13568-2, residues 1-514, S451D/S453D/S456D/S462D)
Method: protein-binding microarray
Form: double-stranded DNA, one strand shown
Matrix: in vitro
Tested at: 940 nM top
Notes: 60-bp whole probe
Added: salmon DNA 0.4 mg/ml
Relative to: random background probes
Direction: higher = stronger binding
Measurement: fitted relative affinity
All sequences stand within: GCCTAGCAC … GTCTTGATTCGCTTGACGCTGCTG
CTCACCGCCAACCCAGTTCCGTGCTAG: 0.82 z-score
TCACCTTTTTTGTTGTTACTGTGCTAG: 1.47 z-score
GACGAACTGAGTCACGAGACGTGCTAG: -0.262 z-score
AGATTCCTCTCACCTCGGCCTGTGCTA: 1.32 z-score
CACTCTCTACATGTGTTTAAGTGCTAG: 2.08 z-score
CTTGTTCTTAGCTTGGGTCTGTGCTAG: 0.123 z-score
GACTGTTTCGGGTATCGGGACGTGCTA: 4.74 z-score
GAGGGTCTCGGTCTCGGGACGTGCTAG: 2.36 z-score
TCATTTGACTCTTTCTGACTGTGCTAG: 0.901 z-score
TCAAGAAAGTGAAATACCACTGTGCTA: -0.494 z-score
TTAGATATCCTTCTCCTTTAGTGCTAG: 0.538 z-score
TTAGGTGTCGACACTGGGTTAGTGCTA: 0.0924 z-score
GACGATATCGGGTTTCGATACGTGCTA: 5.42 z-score

Set 6
Target: CCNB1, cyclin fold, Cln2 fusion (human)
Method: yeast growth competition, sequencing
Matrix: yeast
Notes: strong parent motif
Relative to: not given
Direction: higher = stronger binding
Measurement: normalised enrichment score
Starting sequence: PKMYT1 docking peptide (human); SFEPRNLLSLFED; partner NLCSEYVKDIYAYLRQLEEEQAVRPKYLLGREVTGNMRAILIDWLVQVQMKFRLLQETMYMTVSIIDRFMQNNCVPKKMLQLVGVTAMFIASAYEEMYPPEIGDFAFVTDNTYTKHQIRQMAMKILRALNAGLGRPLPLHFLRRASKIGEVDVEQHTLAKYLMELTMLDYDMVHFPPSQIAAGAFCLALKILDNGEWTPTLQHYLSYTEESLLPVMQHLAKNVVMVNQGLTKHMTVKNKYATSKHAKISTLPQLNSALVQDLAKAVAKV
L10T: 0.131
F11A: 0.332
N6W: 0.0315
F11K: 0.489
D13P: 0.972
S1W: 2.02
R5L: 0.696
E12H: 0.207
N6G: 0.968
S1F: 2.02
D13I: 0.424
F2L: 0.715
L7P: -0.709
S9D: 1.04

Set 7
Target: Hepatocyte nuclear factor 3-alpha (Foxa1, Mus musculus, UniProt P35582, residues 1-468, full length assumed)
Method: EMSA with sequencing
Form: double-stranded DNA, one strand shown
Matrix: in vitro
Tested at: 10 and 20 nM
Notes: whole designed probe, mean of two concentrations, ends assumed
Relative to: negative control set to 0
Direction: higher = stronger binding
Measurement: normalised bound fraction
Target sequence (chain): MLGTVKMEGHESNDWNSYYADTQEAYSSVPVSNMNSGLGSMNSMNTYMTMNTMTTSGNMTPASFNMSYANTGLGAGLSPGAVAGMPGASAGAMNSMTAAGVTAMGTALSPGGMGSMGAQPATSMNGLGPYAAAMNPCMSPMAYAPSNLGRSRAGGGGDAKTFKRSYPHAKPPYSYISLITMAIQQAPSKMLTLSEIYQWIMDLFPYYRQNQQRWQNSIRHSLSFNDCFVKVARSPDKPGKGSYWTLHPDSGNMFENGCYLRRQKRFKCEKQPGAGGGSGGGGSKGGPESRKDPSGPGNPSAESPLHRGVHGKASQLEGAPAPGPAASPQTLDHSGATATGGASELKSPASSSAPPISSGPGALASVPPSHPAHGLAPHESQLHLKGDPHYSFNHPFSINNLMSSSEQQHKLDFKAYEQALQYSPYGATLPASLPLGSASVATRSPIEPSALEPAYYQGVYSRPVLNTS
GTGAGCGGTGCCCATTGATGGGGAACCACGGGCTCTGCTGCTCAGGAAGAATAAAATACAGAAAAATCTCATCTCTGTTGGTAGTTTTGGCTTCCTTATCCCATCACTTTCAACCACCCATGTTTACATAAGGCCACACTGCTGGGCTGGAATGCCTAGCTGTGGCCCCTCTCAAGACAACATGATAAACAGAGCATTTGCTCCAAGTTGAACAACAAGTTTCACTGGGATCGTGGGGAC: 0.501 ratio
GTGAGCGGTGCCCATTGATGGGGAACGGTAAAATAGTGCTTGGTTAGAGAAAGAGATTGGCTAATAGTTTGGGGAAACCACTTTTAAGATAGGTATTATTTTAGTGCAACAAAATTGTTGTTTACTTAGGTTTATTCAAAACCTAAAGAGTTTAACTTAGCTTTTTACTGAACATAATTTAATTTCAGAAGTCATTTAGGATCTTGAGAACCTTCAGATTTTCACTGGGATCGTGGGGAC: 0.43 ratio
GTGAGCGGTGCCCATTGATGGGGAACGGTGTTTAAGAAAACAAGCCAGAATTAGATAAAGTAAAACTTACTTTATTAAATAGGATGGACACCACTTCTCCCAAGAGAACTGTCTCCAAAAGTAAACAAGAAAGATCAATCTGGTAAACTCACATCATACAGGTTCCCGTGTAAGGTATCGGGTTCAGGCAGGTGGAAGCCAAATGATCGTAATTAAAGTTTTCACTGGGATCGTGGGGAC: 0.448 ratio
GTGAGCGGTGCCCATTGATGGGGAACCTCCGGTCTAGTAGGAGATGACCATGGTCAAGGAGACACGTGCTCCCCAGGGTGGAGGGCTGGAGTCCCAAAGCAGGAATGCTATGTTTTGTTGTTTACTCTGAAGAACCCCGGAGATTCATTAGGAAACAGGGCATGTGCTCCCGGGACATTTGGAAAATCAAATTTGAAAATATATATATATATTCACTGGTTTCACTGGGATCGTGGGGAC: 0.293 ratio

Other studies, line by line
Method: cross-linking MS
PELP1 (Homo sapiens, UniProt Q8IZL8)  interaction screen (WDR18 (Homo sapiens, UniProt Q9BV38); hits only): cross-linked
MCM4 (Homo sapiens, UniProt P33991)  cross-linked residues (MCM6 (Homo sapiens, UniProt Q14566); cell fractions; added: DSSO): K549 to K205
MYH9 (Homo sapiens, UniProt P35579)  interaction screen (MYL6 (Homo sapiens, UniProt P60660); hits only): cross-linked
